# Measurements from different studies.
# Every numbered part comes from another study and shows a few of its results, in no order. “And” joins repeats or separate records; there may be more than shown.
# Chain of UniProt O14920 (whole entry, looked up): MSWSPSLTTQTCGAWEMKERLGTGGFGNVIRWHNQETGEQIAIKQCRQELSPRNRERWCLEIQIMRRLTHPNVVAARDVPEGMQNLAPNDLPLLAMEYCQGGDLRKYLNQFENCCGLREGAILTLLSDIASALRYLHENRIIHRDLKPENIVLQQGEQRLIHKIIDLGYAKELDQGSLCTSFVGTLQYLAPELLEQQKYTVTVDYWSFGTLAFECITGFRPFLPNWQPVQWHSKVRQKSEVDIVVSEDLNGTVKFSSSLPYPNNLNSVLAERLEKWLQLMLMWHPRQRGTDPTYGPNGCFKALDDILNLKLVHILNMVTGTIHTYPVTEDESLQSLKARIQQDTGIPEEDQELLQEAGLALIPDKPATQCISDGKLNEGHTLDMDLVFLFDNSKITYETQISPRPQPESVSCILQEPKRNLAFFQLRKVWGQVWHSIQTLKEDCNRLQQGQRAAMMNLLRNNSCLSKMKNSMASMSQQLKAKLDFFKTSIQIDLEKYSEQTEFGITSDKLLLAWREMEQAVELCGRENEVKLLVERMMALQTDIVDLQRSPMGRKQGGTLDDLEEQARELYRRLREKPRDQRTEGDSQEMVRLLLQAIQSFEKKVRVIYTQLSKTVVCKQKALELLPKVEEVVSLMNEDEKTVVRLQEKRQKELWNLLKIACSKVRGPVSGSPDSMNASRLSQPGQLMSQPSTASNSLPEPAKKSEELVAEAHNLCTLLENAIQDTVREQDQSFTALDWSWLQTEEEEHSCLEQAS
# Chain of UniProt Q16566 (whole entry, looked up): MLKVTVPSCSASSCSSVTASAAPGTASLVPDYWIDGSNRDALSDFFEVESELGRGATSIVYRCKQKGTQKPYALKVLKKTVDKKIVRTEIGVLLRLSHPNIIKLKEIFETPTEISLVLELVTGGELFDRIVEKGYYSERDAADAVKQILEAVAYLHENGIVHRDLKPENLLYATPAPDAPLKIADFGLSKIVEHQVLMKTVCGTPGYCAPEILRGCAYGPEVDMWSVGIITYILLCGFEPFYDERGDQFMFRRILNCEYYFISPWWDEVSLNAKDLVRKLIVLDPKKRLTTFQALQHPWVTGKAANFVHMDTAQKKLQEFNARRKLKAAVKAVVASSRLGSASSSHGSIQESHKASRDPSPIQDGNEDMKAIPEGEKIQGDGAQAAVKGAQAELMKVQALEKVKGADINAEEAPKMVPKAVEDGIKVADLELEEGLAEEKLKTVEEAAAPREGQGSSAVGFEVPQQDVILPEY
# Chain of UniProt Q8IWQ3 (whole entry, looked up): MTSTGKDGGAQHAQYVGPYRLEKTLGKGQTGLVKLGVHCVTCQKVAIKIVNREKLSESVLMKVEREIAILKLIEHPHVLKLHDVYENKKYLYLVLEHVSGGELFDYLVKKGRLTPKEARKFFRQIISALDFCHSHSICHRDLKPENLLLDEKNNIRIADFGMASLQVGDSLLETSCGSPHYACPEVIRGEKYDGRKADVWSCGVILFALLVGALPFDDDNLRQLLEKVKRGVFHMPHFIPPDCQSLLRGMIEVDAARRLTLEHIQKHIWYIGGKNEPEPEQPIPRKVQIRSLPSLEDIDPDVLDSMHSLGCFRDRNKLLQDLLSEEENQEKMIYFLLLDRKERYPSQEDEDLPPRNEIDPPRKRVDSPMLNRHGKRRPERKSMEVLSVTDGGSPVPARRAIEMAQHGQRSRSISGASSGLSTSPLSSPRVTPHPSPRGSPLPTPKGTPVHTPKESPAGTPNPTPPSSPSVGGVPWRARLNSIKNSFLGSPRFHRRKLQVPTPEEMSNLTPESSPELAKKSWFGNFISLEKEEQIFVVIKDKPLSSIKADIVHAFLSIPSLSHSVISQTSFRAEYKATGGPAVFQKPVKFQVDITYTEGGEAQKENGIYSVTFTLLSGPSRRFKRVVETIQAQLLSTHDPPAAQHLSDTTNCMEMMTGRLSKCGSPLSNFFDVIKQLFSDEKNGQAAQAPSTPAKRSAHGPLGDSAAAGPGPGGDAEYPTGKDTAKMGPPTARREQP

# Study 1
# Cell line: HuT78
# Tested at: 2 µM
# Time: 48 h
# Baseline: untreated
Compound,viability [%]
Nc1cc(C(F)(F)F)c(-c2cc(N3CCOCC3)nc(N3CCOCC3)n2)cn1,34.9
Cc1cc(N2CCOCC2)cc2[nH]c(-c3c(NC[C@@H](O)c4cccc(Cl)c4)cc[nH]c3=O)nc12,144
C=CC(=O)Nc1ccc2ncnc(Nc3cccc(Br)c3)c2c1,130

# Study 2
# SMILES: CC(=O)C1=C(C)N(c2cccc(C(F)(F)F)c2)C(=O)N[C@@H]1c1ccc(C#N)nc1
# Observed: cell-free assay
# Method: competition with immobilised ligand
# Tested at: 1 µM
target,remaining binding
"Inhibitor of nuclear factor kappa-B kinase subunit beta (IKBKB, Homo sapiens, UniProt O14920)",100%
"Serine/threonine-protein kinase BRSK2 (BRSK2, Homo sapiens, UniProt Q8IWQ3)",100%
"Dual specificity testis-specific protein kinase 1 (TESK1, Homo sapiens, UniProt Q15569)",100%
"Calcium/calmodulin-dependent protein kinase type IV (CAMK4, Homo sapiens, UniProt Q16566)",54.3%
"Calcium/calmodulin-dependent protein kinase type 1D (CAMK1D, Homo sapiens, UniProt Q8IU85)",79.4%

# Study 3
# Target: Calcium/calmodulin-dependent protein kinase type 1B (PNCK, Homo sapiens, UniProt Q6P2M8)
# Chain of UniProt Q6P2M8 (whole entry, looked up): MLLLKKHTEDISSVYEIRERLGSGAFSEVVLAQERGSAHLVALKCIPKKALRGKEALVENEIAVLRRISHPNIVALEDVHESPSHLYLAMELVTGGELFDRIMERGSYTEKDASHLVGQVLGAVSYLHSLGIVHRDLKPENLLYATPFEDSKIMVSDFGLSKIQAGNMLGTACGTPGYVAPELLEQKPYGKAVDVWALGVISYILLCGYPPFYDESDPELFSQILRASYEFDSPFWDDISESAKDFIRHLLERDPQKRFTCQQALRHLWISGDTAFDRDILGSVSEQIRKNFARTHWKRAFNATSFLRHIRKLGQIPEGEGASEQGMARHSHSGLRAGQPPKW
# Observed: enzyme activity
# Mode: inhibitor
# Tested at: 0.5 µM
# Baseline: control
Compound,remaining activity
NCCNc1ncc(C(N)=O)c(Nc2cccc(C(F)(F)F)c2)n1,57.3%
Cc1nc(-c2ccccc2)c(-c2ccncc2)o1,96.6%
Oc1ccc(-c2nc(-c3ccncc3)c(-c3ccc(F)cc3)[nH]2)cc1,99.7%
O=S(=O)(c1cccc2cnccc12)N1CCCNCC1,91.6%
COc1cc2ncnc(Nc3ccc(Oc4ccccc4)cc3)c2cc1OC,97.7%
Cc1cccc(-c2[nH]c(C(C)(C)C)nc2-c2ccc3c(c2)OCO3)n1,101%
Nc1[nH]nc2nc3ccccc3nc12,102%
COc1cc2ncnc(Nc3ccc(F)c(Cl)c3)c2cc1OCCCN1CCOCC1,108%
CO[C@H]1C[C@@H]2CC[C@@H](C)[C@@](O)(O2)C(=O)C(=O)N2CCCC[C@H]2C(=O)O[C@H]([C@H](C)C[C@@H]2CC[C@@H](O)[C@H](OC)C2)CC(=O)[C@H](C)/C=C(\C)[C@@H](O)[C@@H](OC)C(=O)[C@H](C)C[C@H](C)/C=C/C=C/C=C/1C,95.4%
COc1ccc(OC)c2c(=S)c3ccccc3[nH]c12,97.3%
CNC(=O)c1cc(Oc2ccc(NC(=O)Nc3ccc(Cl)c(C(F)(F)F)c3)cc2)ccn1,94.7%
C#Cc1cccc(Nc2ncnc3cc(OCCOC)c(OCCOC)cc23)c1,103%
CCOC(=O)c1c(C)[nH]c(/C=C2\C(=O)Nc3ccccc32)c1C,88.6%
O=C1NC(=O)C(c2cn(CCCO)c3ncccc23)=C1c1cnccn1,94.9%

# Study 4
# Target: DNA polymerase theta, ATPase domain (POLQ, Homo sapiens, UniProt O75417)
# Chain of UniProt O75417 (whole entry, unmodified, looked up): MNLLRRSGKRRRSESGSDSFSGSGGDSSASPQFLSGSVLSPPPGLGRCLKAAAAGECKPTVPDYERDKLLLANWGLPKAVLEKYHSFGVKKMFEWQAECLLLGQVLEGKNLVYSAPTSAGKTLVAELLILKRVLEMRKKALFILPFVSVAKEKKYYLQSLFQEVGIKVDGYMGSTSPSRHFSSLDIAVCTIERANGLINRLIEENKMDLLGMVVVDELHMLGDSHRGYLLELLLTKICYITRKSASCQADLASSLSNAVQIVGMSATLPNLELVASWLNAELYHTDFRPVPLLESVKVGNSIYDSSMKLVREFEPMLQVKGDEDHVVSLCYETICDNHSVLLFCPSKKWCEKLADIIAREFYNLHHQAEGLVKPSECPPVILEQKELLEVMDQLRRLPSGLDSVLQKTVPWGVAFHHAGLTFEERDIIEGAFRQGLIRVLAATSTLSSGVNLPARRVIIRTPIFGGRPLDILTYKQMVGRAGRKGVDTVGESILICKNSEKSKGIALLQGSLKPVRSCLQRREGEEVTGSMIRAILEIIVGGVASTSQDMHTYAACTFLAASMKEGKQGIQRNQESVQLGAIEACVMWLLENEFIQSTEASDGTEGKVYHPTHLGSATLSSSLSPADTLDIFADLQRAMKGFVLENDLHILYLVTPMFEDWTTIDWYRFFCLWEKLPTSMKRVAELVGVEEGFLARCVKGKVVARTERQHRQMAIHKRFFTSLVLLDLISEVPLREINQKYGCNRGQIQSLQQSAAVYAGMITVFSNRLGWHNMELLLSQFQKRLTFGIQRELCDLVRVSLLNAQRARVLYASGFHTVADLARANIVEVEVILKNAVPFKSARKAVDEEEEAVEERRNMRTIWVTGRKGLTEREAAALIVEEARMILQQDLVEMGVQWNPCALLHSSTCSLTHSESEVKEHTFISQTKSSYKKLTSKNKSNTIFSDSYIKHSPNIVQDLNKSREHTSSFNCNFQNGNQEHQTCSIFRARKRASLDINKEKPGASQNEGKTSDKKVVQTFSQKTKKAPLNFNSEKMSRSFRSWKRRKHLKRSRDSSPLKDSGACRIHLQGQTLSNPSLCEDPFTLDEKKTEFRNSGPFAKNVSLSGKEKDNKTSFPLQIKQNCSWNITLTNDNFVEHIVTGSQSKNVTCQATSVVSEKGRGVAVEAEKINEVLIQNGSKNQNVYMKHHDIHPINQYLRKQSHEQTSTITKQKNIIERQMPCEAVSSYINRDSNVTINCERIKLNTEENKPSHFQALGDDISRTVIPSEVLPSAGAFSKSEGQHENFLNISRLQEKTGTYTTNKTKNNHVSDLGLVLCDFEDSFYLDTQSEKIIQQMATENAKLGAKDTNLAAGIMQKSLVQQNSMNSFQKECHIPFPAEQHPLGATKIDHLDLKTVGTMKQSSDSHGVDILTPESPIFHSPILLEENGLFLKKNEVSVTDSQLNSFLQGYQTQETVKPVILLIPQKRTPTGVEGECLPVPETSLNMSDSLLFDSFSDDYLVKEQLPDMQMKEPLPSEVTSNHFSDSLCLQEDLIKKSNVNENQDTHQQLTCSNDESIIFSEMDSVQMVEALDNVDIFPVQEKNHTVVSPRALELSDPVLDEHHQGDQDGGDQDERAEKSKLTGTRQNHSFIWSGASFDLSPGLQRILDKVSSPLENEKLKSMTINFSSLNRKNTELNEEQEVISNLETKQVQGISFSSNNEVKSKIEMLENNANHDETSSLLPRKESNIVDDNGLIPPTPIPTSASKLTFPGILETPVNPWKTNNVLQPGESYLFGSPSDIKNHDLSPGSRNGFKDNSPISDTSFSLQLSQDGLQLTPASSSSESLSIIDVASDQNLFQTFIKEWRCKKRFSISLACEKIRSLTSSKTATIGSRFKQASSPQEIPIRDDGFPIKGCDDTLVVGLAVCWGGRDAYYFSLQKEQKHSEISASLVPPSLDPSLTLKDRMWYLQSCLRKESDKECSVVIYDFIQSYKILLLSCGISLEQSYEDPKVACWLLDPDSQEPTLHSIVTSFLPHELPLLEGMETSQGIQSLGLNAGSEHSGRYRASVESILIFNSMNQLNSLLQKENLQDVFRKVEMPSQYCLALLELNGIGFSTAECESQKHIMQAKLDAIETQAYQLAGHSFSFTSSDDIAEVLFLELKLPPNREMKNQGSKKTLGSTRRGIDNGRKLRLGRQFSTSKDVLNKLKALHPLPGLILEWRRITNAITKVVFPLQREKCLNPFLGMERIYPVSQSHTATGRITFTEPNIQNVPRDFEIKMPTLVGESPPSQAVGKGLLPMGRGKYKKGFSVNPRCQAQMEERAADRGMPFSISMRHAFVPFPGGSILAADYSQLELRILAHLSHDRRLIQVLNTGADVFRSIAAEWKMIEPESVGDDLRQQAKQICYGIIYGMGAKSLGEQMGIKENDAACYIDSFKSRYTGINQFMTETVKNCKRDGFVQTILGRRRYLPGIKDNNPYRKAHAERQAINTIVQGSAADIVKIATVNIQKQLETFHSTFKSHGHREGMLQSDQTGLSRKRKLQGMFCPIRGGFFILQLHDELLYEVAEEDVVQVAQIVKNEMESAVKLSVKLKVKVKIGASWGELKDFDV
# Observed: enzyme activity
# Mode: inhibitor
# Tested at: 77 µM
# Baseline: untreated
SMILES,remaining activity [%]
CN1CCOC(c2ccccc2)c2ccccc2C1 (centres unmarked),100
COC(=O)CCSCc1ccc(-c2onc(C)c2NC(=O)OC(C)c2ccccc2Cl)cc1 (centres unmarked),93.4
O=C(/C=C/c1ccc(O)c(O)c1)c1ccc(O)cc1O,95.5

# Single results of other studies
# KRAS Q61H: GTPase KRas (KRAS, Homo sapiens, UniProt P01116, Q61H)
SMILES,target or system,test,test system,conditions,endpoint,result
CN1CCC[C@H]1COc1nc2c(c(N3CCN(S(C)(=O)=O)[C@@H](CC#N)C3)n1)CCN(c1cccc3cccc(Cl)c13)C2,KRAS Q61H,"binding, competitor, NanoBRET",HEK293,1.69 nM,normalized BRET,101% and 104% and 87.7%
CC(C)n1cnc(-c2ccc(F)cc2)c1-c1ncc(C(=O)Nc2ccc(N3CCN(C)CC3)cc2)[nH]1,,,"human, idiopathic pulmonary fibrosis","30 mg once daily, trial, treatment-emergent",patients with respiratory tract infection,0%
C=C(F)C(=O)N1CCN(c2nc(OC[C@@H]3CCCN3C)nc3c2CCN(c2cccc4cccc(Cl)c24)C3)C[C@@H]1CC#N,"GTPase HRas (HRAS, Homo sapiens, UniProt P01112)","binding, competitor, NanoBRET",HEK293,2.22 µM,normalized BRET,98.1% and 101%
CCC(=O)N1CCN(c2nc(OC[C@@H]3CCCN3C)nc3c2CCN(c2cccc4cccc(Cl)c24)C3)C[C@@H]1CC#N,KRAS Q61H,"binding, competitor, NanoBRET",HEK293,15.2 nM,normalized BRET,99% and 99.8% and 92.7%

# Excerpt of the above (study 1):
Compound,viability [%]
Cc1cc(N2CCOCC2)cc2[nH]c(-c3c(NC[C@@H](O)c4cccc(Cl)c4)cc[nH]c3=O)nc12,144
C=CC(=O)Nc1ccc2ncnc(Nc3cccc(Br)c3)c2c1,130
